Results from different studies.
Numbered parts are unrelated; each lists some results of a single study. Changes are numbered by the printed parent chain.

Set 1
Target: ABI1, truncated, D143A, DHFR fusion (Arabidopsis thaliana)
Technique: DHFR PCA, deep sequencing
Sample: yeast
Notes: methotrexate growth selection, single substitutions
Added: (+)-ABA 0.032 µM
Relative to: wild-type fitted maximum
Direction: higher = stronger binding
Starting sequence: PYL1, truncated, DHFR fusion (Arabidopsis thaliana); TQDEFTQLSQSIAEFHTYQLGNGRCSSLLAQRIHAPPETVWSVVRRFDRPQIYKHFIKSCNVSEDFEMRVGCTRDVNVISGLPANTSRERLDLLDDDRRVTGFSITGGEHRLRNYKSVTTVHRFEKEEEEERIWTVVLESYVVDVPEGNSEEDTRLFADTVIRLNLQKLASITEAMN
Change	relative binding score [%]
Q31H	9.65
M176I	7.72
A158W	2.99
Q167G	5.8
N22R	33.9
V161Q	39.9
M176R	7.28
E174F	-9.18
F5C	11.5
I33K	-7.13
I172L	11.9
V137A	1.03
G102I	9.28
N22F	14.6

Set 2
Target: Centromere-binding protein 1, full length, His-tagged (CBF1, Saccharomyces cerevisiae, UniProt P17106, residues 1-351)
UniProt P17106, sequence (whole entry, looked up): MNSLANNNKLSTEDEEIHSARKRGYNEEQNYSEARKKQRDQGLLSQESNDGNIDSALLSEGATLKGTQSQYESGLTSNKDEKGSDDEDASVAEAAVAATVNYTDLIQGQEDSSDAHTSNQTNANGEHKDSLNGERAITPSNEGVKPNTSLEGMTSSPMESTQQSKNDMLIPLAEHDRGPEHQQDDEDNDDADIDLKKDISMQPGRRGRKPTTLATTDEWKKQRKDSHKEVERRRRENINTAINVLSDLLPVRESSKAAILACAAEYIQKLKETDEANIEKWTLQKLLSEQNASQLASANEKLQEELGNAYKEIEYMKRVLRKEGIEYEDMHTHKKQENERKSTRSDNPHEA
Technique: competition protein-binding microarray
Molecule type: double-stranded DNA, one strand shown
Sample: in vitro
Concentration: 2 µM
Notes: whole 60-bp probe, lowest competitor level
Added: Pho4 competitor, 0.05 µM
Direction: higher = stronger binding
Shared flanks, not repeated: … GTCTTGATTCGCTTGACGCTGCTG
Sequence	fluorescence intensity
TGCGCAACAACTTTTCACGTGTACTTATGTCTAGAA	1080 a.u.
ACTACGAATTTTTCATTCGTGACTCGAAAAACCTAG	170 a.u.
AAAGCGGTAATTTGCATGGTGGGTGCAGATATCTAT	72.1 a.u.
TGTCCCTCTATTAACACCGTGATGGTCAAATCAAAC	126 a.u.
ATCAAATGAGACTAGCACATGGGGCTCTCGTTAGCC	92 a.u.
CTAACGAAGGTTTCACACGTGTTTTACAAGCCAAGT	1170 a.u.
CGGGGTTAAGTTTAACACGTGTTTTGCTTGCAGCAG	1410 a.u.
TTAATTAGCTTCTTGCATGTGCTCTTTAGCTTCGGC	128 a.u.
CGGGGTTAAGTTTGTTCTGTGGGTGGCTTGCAGCAG	65.6 a.u.
GTCTTGTCTCATTGTCAGGTGGGTGTCCCCACTTCA	130 a.u.
CTTTCCCGATCTTGTCATGTGGGTGTAGCACATTTG	182 a.u.
AAACTTTGGCCTTAGCCCGTGGGTATGTTACCATTG	67.2 a.u.
CTAACGAAGGTTTTTCACGTGCCGTACAAGCCAAGT	1130 a.u.
CCCGTTAGAATCCATCACGTAACCTGGTGGCGCTTT	79.3 a.u.
TGCGTTTGGTAGTCGCGCGTGAATATGCTAATTGGG	69.4 a.u.
ATTGGGCCATCAGCAGACGTGGCCTTGGCTGGACGC	52.5 a.u.
CGGGGTTAAGTTTGAACTGTGGGTGGCTTGCAGCAG	68.8 a.u.

Set 3
Target: Sal-like protein 4, full length isoform B (SALL4, Homo sapiens, UniProt Q9UJQ4-2, residues 1-616)
Technique: universal PBM
Molecule type: double-stranded DNA, one strand shown
Sample: in vitro
Concentration: not given
Notes: 8-mer, flanks averaged, mean of replicates
Direction: higher = stronger binding
Sequence	E-score
AACAAATC	0.215
CAAGTACG	-0.0397
CTCCCTGA	-0.18
CAAACGTA	0.192
ACGCTCTC	-0.13
GGACTGCA	-0.139
AGCAGCCG	-0.266
AAAAATGC	0.121
AAGTGTGG	0.0226
ATGCACGG	-0.255
GCCAGATA	0.0442
CTTAGGAA	0.054
GATCACGC	-0.115
GCCTTCCC	-0.315
CTGAGAGA	-0.133
CCTGAGGC	-0.344
CTCCGCGC	-0.288

Set 4
Target: Probable WRKY transcription factor 33, N-terminal DNA-binding domain (WRKY33, Arabidopsis thaliana, UniProt Q8S8P5, residues 169-264)
Technique: DNA-protein interaction ELISA
Molecule type: double-stranded DNA, one strand shown
Sample: in vitro, bacterial lysate
Concentration: not given
Notes: whole dsDNA probe, crude lysate protein
Relative to: highest signal in screen
Direction: higher = stronger binding
Construct (chain): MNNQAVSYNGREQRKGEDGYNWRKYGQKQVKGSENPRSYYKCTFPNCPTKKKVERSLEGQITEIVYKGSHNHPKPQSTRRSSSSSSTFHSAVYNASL
Sequence	relative absorbance
AAAAAAATCATCCTATTGTTGCTGTCAAAA	11.8 % of maximum
AAAAAATTACTATTACACACTTGGGGAAAA	23.2 % of maximum
AAAAAAACGCTCAAGTCTATCAGTAGAAAA	21.9 % of maximum
AAAAAAATTCATGCTATTTAACCTTAAAAA	31.5 % of maximum
AAAAAACGGTCGCGATCGTTAATGATAAAA	13.2 % of maximum
AAAAAACGGTAAGTCGACAAAA	24.1 % of maximum
AAAAAAAGTTTGACCTTGGCGTTCGTAAAA	74.4 % of maximum
AAAAAACCGATCATCACATATCACTGAAAA	21.3 % of maximum
AAAAAACGCCTTATGCCTCCCGCTCGAAAA	32.3 % of maximum
AAAAAAATGGTGCCGCTGAGCAAATTAAAA	19 % of maximum
AAAAAATCTGTTCTCGTTTCCCCTTCAAAA	26.1 % of maximum
AAAAAAACTATAGTCTTTGTCATGATAAAA	16.2 % of maximum

Set 5
Target: Interferon regulatory factor 5, full length, phosphomimetic (IRF5, Homo sapiens, UniProt Q13568-2, residues 1-514, K96S/S451D/S453D/S456D/S462D)
Technique: protein-binding microarray
Molecule type: double-stranded DNA, one strand shown
Sample: in vitro
Concentration: 250 nM
Notes: 60-bp whole probe
Added: salmon DNA 0.4 mg/ml
Relative to: random background probes
Direction: higher = stronger binding
Shared flanks, not repeated: GCCTAGCAC … GTCTTGATTCGCTTGACGCTGCTG
Sequence	log fluorescence
TGGGAGCTCAGGAATCCCACGTGCTAG	-0.814 z-score
GACGATCTCAGACTAGAGACGTGCTAG	-0.351 z-score
GACGGTATCCATCTCCTGACGTGCTAG	0.0221 z-score
CTCACCATCATCCTCACTGCGTGCTAG	0.334 z-score
GTAGGACTGGACTATCGGTTAGTGCTA	5.41 z-score
GACGATTTCTGGACTGGAGACGTGCTA	0.245 z-score
TCAAACATCTACAATGGCACTGTGCTA	0.356 z-score
TCAACCTTCGAGTCTGCAACTGTGCTA	0.633 z-score
TTAGGTATCGACAATGGGTTAGTGCTA	2.56 z-score
GACGATATCGCGTATCGAGACGTGCTA	1.06 z-score
GACGAACTGAGTATCGAGAAGTGCTAG	1.67 z-score
GACGGTTTCGGTACCGGGACGTGCTAG	9.4 z-score

Set 6
Target: CCNF, cyclin fold, Cln2 fusion (human)
Technique: yeast growth competition, sequencing
Sample: yeast
Notes: strong parent motif
Relative to: not given
Direction: higher = stronger binding
Starting sequence: RBL1 docking peptide (human); GSAKRRLFGEDPP
Change	normalised enrichment score
GSAKRRLFGEDPG [P13G]	7.39
GSAKRRLFCEDPP [G9C]	8.07
GQAKRRLFGEDPP [S2Q]	6.5
GSATRRLFGEDPP [K4T]	3.56
GSAKRRLRGEDPP [F8R]	0.825
GSAKRWLFGEDPP [R6W]	1.38
GSAKRRLFGEDPA [P13A]	6.84
GSAKRRLFGVDPP [E10V]	6.8
GSAKRRYFGEDPP [L7Y]	-0.337
GSAKRRLFGEDPW [P13W]	7.21
GSAKRRAFGEDPP [L7A]	-0.0608
GSAKRRLFGEEPP [D11E]	6.82
GSAKRRLFGEDPN [P13N]	7.19
GSAKRRLFGEFPP [D11F]	7.86

Set 7
Target: Ras GTPase-activating protein-binding protein 1, full length (G3BP1, Homo sapiens, UniProt Q13283)
UniProt Q13283, sequence (whole entry, looked up): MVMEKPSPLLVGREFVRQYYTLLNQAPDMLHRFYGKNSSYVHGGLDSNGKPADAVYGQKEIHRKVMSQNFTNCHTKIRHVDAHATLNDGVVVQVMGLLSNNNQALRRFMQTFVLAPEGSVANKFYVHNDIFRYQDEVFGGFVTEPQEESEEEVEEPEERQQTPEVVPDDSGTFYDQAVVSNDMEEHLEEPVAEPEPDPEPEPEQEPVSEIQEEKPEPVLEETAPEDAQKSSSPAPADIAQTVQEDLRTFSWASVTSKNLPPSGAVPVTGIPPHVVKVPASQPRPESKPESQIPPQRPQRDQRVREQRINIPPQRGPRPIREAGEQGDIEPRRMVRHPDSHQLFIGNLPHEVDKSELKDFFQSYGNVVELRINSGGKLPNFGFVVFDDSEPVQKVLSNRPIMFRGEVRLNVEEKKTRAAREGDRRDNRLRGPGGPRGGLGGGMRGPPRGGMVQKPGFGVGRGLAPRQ
Technique: RNA Bind-n-Seq
Molecule type: RNA
Sample: in vitro
Concentration: 200 nM
Notes: whole 134-nt RNA, ends assumed
Added: 150 mM LiCl
Relative to: input library
Direction: higher = stronger binding
Library: 7-deaza-guanosine replaces G
Shared flanks, not repeated: GGGAGUUCUACAGUCCGACGAUC … UGGAAUUCUCGGGUGUCAAGG
Sequence	log2 enrichment
GCAGGAAGUAAAAACAAAUGGAAAUGCUUUGGAUAGUGGCAGGGGUGGGGGUUGCUAAGGAAAGGGUGGGAUGGGAGUGGGUAAAGAGUU	0.169
GCAGGAAGUAAAAACAAAUGGAAAUGCUUCAAAUAGUGGCAGGGGUGGGGGUUGCUAAGGAAAGGGUGGGAUGGGAGUGGGUAAAGAGUU	-0.176
UCUCCACCUGCUGAGCUCCCCAGUUUGAGGCGGAGCACACGCCAAAAGACCACGGGCUCCUGUGCUAGUACCAGGUAAUUUGUUUUUUUU	0.871
ACCAUGCAGGUGGGCAUCUUUGGGAAGUGGGGCAAGGGGGGGAUAGGGAGGGGGGUAACACUUUAGGAACAGGUGGUCCCAGGUCGUUUC	-0.247
ACCAAGCAGGUGGGCAUCUUUGGGAAGUGGGGCAAGGGGGGGAUAGGGAGGGGGGUAACACUUUGGGAACAGGUGGUCCCAGGUCGUUUC	0.243
CAAGUCCUGUGCUACACAUCGUAUGUACCGAAUCGGGGUUUGGUUUGGGGUUUGGGAAAGUAUUAUGUUACGCCGUUCGGAUCUGCACUU	-1.46
